Experimental data of several laboratories.
Each numbered part is a random draw from the data of one study; scales do not carry over between parts.
UniProt Q9UQM7, sequence (whole entry, looked up): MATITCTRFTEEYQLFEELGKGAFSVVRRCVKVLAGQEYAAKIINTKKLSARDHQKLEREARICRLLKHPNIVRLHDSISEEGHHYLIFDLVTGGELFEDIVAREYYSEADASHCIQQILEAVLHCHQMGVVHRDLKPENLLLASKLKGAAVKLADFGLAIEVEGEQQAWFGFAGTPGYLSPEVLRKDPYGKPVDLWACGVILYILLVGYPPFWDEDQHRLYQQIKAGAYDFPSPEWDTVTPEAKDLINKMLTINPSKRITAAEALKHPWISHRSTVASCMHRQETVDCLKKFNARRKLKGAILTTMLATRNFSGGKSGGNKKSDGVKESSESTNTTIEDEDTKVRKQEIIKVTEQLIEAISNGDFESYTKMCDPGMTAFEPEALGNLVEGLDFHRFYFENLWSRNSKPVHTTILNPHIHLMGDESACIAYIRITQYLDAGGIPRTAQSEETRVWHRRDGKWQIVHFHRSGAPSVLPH
UniProt P42336, sequence (whole entry, unmodified, looked up): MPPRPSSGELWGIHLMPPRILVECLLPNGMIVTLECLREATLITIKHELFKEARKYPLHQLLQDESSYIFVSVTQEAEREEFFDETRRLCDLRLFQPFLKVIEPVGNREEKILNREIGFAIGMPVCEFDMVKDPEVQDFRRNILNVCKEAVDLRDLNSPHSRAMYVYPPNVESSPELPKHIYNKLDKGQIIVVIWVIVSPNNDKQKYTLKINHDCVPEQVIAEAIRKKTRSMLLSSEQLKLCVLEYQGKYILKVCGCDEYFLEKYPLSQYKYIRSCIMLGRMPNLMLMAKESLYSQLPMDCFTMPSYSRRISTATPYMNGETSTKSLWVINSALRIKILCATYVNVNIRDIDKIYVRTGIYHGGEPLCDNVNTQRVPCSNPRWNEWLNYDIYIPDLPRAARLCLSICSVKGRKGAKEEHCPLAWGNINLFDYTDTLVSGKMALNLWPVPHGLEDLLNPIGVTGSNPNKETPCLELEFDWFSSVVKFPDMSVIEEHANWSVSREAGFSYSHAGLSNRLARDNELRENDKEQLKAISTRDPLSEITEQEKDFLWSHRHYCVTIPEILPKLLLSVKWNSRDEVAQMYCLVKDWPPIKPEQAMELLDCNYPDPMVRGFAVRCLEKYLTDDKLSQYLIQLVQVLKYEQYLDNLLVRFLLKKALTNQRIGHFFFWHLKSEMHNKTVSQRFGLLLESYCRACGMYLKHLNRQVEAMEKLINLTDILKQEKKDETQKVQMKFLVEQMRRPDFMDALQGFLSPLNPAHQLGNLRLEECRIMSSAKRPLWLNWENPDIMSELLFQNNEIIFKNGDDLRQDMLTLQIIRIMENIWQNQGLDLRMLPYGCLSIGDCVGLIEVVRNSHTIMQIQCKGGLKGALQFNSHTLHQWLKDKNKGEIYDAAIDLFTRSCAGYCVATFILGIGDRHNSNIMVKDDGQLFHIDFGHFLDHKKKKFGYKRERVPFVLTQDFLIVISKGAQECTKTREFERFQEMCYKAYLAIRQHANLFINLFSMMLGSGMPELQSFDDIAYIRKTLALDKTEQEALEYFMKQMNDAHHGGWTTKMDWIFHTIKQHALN
UniProt P52333, sequence (whole entry, looked up): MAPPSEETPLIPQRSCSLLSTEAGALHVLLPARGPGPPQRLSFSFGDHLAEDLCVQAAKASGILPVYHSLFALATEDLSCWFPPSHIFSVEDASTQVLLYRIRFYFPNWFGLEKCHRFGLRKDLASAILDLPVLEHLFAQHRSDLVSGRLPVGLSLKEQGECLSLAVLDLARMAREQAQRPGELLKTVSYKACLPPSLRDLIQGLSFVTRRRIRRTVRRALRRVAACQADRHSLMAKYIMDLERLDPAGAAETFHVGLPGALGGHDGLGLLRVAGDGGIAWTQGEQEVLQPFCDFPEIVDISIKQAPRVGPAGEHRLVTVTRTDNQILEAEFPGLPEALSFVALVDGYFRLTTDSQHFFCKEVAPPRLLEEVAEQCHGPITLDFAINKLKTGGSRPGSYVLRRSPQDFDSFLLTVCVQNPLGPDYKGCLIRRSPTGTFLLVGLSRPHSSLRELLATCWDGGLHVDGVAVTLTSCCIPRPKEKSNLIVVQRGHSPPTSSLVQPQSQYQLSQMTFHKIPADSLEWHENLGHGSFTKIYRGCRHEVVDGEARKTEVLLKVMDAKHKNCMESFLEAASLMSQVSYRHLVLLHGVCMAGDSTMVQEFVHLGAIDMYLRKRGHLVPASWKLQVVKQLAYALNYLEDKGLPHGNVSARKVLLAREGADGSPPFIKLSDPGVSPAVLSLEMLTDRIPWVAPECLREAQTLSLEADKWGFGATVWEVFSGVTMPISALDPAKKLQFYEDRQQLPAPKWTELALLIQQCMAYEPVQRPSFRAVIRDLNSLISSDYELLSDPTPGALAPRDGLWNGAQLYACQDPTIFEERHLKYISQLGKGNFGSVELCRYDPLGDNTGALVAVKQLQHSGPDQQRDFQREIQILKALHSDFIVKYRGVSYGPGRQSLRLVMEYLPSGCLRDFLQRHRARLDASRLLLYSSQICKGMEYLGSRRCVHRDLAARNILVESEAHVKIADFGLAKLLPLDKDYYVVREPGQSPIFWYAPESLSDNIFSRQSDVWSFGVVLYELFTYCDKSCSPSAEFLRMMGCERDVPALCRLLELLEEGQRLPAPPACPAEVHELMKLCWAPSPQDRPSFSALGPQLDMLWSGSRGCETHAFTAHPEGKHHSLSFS
UniProt Q9BQI3, sequence (whole entry, looked up): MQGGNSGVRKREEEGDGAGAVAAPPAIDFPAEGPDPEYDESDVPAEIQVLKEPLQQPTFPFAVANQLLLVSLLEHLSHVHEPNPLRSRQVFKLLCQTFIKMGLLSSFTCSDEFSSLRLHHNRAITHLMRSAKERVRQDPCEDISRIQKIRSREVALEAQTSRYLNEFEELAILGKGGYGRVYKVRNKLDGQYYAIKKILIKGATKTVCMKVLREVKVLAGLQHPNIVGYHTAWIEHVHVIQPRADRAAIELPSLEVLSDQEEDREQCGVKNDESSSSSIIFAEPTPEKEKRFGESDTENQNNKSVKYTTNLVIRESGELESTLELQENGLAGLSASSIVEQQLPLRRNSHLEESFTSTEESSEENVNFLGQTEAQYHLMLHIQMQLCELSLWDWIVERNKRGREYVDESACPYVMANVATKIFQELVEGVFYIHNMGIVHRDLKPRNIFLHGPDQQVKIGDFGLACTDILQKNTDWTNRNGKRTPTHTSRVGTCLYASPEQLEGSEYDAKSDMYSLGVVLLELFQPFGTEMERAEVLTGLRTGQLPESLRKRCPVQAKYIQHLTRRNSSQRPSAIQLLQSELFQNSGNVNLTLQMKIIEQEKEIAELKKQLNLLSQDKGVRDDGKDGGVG
UniProt P16234, sequence (whole entry, looked up): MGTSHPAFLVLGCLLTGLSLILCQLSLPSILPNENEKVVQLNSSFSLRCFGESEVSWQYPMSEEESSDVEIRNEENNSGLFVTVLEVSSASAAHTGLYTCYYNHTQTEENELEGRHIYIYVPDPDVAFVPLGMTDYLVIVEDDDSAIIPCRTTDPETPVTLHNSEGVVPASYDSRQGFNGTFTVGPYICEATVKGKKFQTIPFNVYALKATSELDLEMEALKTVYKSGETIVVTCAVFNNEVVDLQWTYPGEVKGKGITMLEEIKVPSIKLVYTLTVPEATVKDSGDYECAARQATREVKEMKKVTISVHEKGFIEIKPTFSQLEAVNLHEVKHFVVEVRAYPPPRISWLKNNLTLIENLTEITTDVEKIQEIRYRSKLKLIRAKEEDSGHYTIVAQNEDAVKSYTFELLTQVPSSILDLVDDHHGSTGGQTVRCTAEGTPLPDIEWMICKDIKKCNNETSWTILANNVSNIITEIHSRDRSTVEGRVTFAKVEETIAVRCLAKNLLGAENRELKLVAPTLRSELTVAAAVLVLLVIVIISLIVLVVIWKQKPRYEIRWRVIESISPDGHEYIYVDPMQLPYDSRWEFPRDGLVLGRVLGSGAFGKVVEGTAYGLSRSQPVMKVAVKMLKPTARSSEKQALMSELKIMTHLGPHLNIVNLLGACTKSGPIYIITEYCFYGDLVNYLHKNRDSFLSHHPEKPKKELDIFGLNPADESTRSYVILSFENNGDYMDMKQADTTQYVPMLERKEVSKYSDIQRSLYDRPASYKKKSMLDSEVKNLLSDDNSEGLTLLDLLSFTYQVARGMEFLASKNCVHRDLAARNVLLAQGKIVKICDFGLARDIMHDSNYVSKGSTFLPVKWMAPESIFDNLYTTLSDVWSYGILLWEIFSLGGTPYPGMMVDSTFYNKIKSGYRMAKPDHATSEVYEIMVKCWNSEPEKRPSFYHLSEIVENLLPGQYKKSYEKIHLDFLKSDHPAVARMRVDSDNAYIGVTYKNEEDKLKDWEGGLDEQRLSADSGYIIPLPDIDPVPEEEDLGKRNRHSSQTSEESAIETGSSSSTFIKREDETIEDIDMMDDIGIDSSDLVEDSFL

Series 1
SMILES: CS(=O)(=O)N1CCCC(NC(=O)[C@H](CCC2CCCCC2)NC(=O)c2ccc(CNc3ncnc4c3nnn4-c3ccccc3)cc2)C1 (stereo partly shown)
Method: competition with immobilised ligand
Tested at: 0.1 µM
For STK4 (Homo sapiens, UniProt Q13043); cell-free assay: remaining binding read 100%.
IRAK1 (Homo sapiens, UniProt P51617); cell-free assay — remaining binding: 100%.
Ribosomal protein S6 kinase alpha-4, C-terminal kinase domain (RPS6KA4, Homo sapiens, UniProt O75676); cell-free assay — remaining binding: 91%.
For EIF2AK1 (Homo sapiens, UniProt Q9BQI3); cell-free assay: remaining binding read 81%.
For PIK3CA (Homo sapiens, UniProt P42336, E542K); cell-free assay: remaining binding read 64%.
The remaining binding was 100% (CAMK2A (Homo sapiens, UniProt Q9UQM7); cell-free assay).
It gave 65% for remaining binding (STK32B (Homo sapiens, UniProt Q9NY57); cell-free assay).
For MET (Homo sapiens, UniProt P08581); cell-free assay: remaining binding read 68%.
STK35 (Homo sapiens, UniProt Q8TDR2); cell-free assay — remaining binding: 100%.
The remaining binding was 94% (FLT3 (Homo sapiens, UniProt P36888, K663Q); cell-free assay).
It gave 100% for remaining binding (Tyrosine-protein kinase JAK3, JH1 (JAK3, Homo sapiens, UniProt P52333); cell-free assay).
TXK (Homo sapiens, UniProt P42681); binding — remaining binding: 77%.
It gave 100% for remaining binding (WNK4 (Homo sapiens, UniProt Q96J92); cell-free assay).
The remaining binding was 100% (Tyrosine-protein kinase ABL1, phosphorylated (ABL1, Homo sapiens, UniProt P00519, H396P); cell-free assay).
The remaining binding was 74% (CDK15 (Homo sapiens, UniProt Q96Q40); cell-free assay).

Series 2
Target: Calcium/calmodulin-dependent protein kinase type II subunit alpha (CAMK2A, Homo sapiens, UniProt Q9UQM7)
Effect on: enzyme activity
Action: inhibitor
Tested at: 10 µM
With `NC(=O)c1cc[n+](CC2=C(C(=O)O)N3C(=O)[C@@H](NC(=O)[C@@H](c4ccccc4)S(=O)(=O)[O-])[C@H]3SC2)cc1` the inhibition was -19%.
For `CC[C@@]1([C@@H]2O[C@@H]([C@H]3O[C@@](O)(CO)[C@H](C)C[C@@H]3C)C[C@@H]2C)CC[C@H]([C@]2(C)CC[C@]3(C[C@H](O)[C@@H](C)[C@@H]([C@@H](C)[C@@H](OC)[C@H](C)C(=O)O)O3)O2)O1`, the inhibition was 33%.
`COC(c1ccccc1)(c1ccccc1)[C@H](Oc1nc(C)cc(C)n1)C(=O)O` gave an inhibition of 3%.
For `CCc1ccc(O)cc1`, the inhibition was -6%.
With `Oc1ccc2ccccc2c1` the inhibition was 24%.
`O=C1CC[C@H](C(=O)O)N1` has an inhibition of 44%.
`COc1cc2oc(-c3ccc(O)cc3)cc(=O)c2c(O)c1OC` gave an inhibition of 1%.
With `NC(=O)OCC(COC(N)=O)c1ccccc1` the inhibition was 11%.

Series 3
Compound: C=CC(=O)N1CCC[C@@H](n2nc(-c3ccc(Oc4ccccc4)cc3)c3c(N)ncnc32)C1
Action: inhibitor
Tested at: 1 µM
The inhibition was 29% (PIK3C2B (Homo sapiens, UniProt O00750); enzyme activity).
It gave 18% for inhibition (GRK2 (Homo sapiens, UniProt P25098); enzyme activity).
PIK3CA (Homo sapiens, UniProt P42336, E545A); enzyme activity — inhibition: 0%.
The inhibition was 1% (FES (Homo sapiens, UniProt P07332); enzyme activity).
SNRK (Homo sapiens, UniProt Q9NRH2); enzyme activity — inhibition: 2%.
FLT3 (Homo sapiens, UniProt P36888, D835V) — inhibition: 91%.
For PKMYT1 (Homo sapiens, UniProt Q99640); enzyme activity: inhibition read 0%.
For PDGFRA (Homo sapiens, UniProt P16234); enzyme activity: inhibition read 67%.
CAMK1 (Homo sapiens, UniProt Q14012); enzyme activity — inhibition: 15%.
CDC42BPA (Homo sapiens, UniProt Q5VT25); enzyme activity — inhibition: 0%.
PIP5K1A (Homo sapiens, UniProt Q99755); enzyme activity — inhibition: 24%.
It gave 0% for inhibition (ACVR2A (Homo sapiens, UniProt P27037); enzyme activity).
It gave 35% for inhibition (MYLK (Homo sapiens, UniProt Q15746); enzyme activity).
TTK (Homo sapiens, UniProt P33981) — inhibition: 27%.
PTK2B (Homo sapiens, UniProt Q14289) — inhibition: 19%.
The inhibition was 54% (MAP3K14 (Homo sapiens, UniProt Q99558); enzyme activity).

Series 4
Target: Casein kinase I isoform alpha (CSNK1A1, Homo sapiens, UniProt P48729)
UniProt P48729, sequence (whole entry, looked up): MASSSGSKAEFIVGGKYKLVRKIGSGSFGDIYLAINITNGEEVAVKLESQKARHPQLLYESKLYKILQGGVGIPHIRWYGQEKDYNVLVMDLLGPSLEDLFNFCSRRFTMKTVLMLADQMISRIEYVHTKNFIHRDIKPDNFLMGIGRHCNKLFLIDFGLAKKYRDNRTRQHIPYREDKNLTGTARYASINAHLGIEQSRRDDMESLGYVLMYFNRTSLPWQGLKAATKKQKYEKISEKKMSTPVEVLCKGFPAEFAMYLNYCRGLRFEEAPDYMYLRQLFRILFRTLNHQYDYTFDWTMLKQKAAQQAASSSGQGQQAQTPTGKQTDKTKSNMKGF
Effect on: enzyme activity
Action: inhibitor
Tested at: 0.5 µM
Reference: control
`Nc1cccc(-c2cc3c(Oc4cccc(O)c4)ncnc3[nH]2)c1` has a remaining activity of 61.8%.
For `CN(C)C[C@H]1CCn2c(c(C3=C(c4cn(C)c5ccccc45)C(=O)NC3=O)c3ccccc32)C1`, the remaining activity was 98.5%.
The remaining activity of `O=c1cc(-c2cccc3c2Sc2ccccc2S3)oc(N2CCOCC2)c1` is reported as 94.9%.
`COc1cc2ncnc(Nc3ccc(O)c(Br)c3)c2cc1OC` has a remaining activity of 89.6%.
With `c1ccc(-c2[nH]ncc2-c2ccnc3ccccc23)nc1` the remaining activity was 74.6%.
`N#C/C(=C\c1ccc(O)c(O)c1)C(=O)NCc1ccccc1` has a remaining activity of 110%.
`N#Cc1c(NC(=O)c2cccc3ccccc23)sc2c1CCCC2` gave a remaining activity of 91.1%.
`O=C(NC(NC(=S)Nc1ccc(F)c([N+](=O)[O-])c1)C(Cl)(Cl)Cl)C(c1ccccc1)c1ccccc1` (stereo not shown) gave a remaining activity of 94.1%.
With `Cc1cc2ncc(-c3ccccc3)nc2cc1C` the remaining activity was 95.4%.
The remaining activity of `Ic1cccc(CSc2nnc(-c3ccncc3)o2)c1` is reported as 97%.
The remaining activity of `C[C@@H]1CCN(C(=O)CC#N)C[C@@H]1N(C)c1ncnc2[nH]ccc12` is reported as 99.7%.
For `Cc1nc2cc3nc(-c4cccs4)cnc3cc2n1C`, the remaining activity was 96.7%.
`CCN(CC)CCNC(=O)c1c(C)[nH]c(/C=C2\C(=O)Nc3ccc(Cl)cc32)c1C` has a remaining activity of 75.7%.
The remaining activity of `CCN(CC)C(=O)c1ccc(Nc2nc(OCC3CCCCC3)c3[nH]cnc3n2)cc1` is reported as 104%.
With `O=C1C(Cl)=C(N2C(=O)CCC2=O)C(=O)c2ccccc21` the remaining activity was 99.2%.
With `O=C1c2ccccc2-c2n[nH]c3cccc1c23` the remaining activity was 47.9%.
`COc1cc2ncnc(Nc3cccc(Cl)c3)c2cc1OC` gave a remaining activity of 92.5%.
For `CN([C@@H](Cc1ccc(OS(=O)(=O)c2cccc3cnccc23)cc1)C(=O)N1CCN(c2ccccc2)CC1)S(=O)(=O)c1cccc2cnccc12`, the remaining activity was 99%.
`O=C(Nc1cccc(Nc2nccc(Nc3cccc(C(F)(F)F)c3)n2)c1)C1CC1` has a remaining activity of 95.8%.
`Cc1cn(-c2cc(NC(=O)c3ccc(C)c(Nc4nccc(-c5cccnc5)n4)c3)cc(C(F)(F)F)c2)cn1` gave a remaining activity of 101%.
`c1ccc(-c2cnc(Nc3ccc(OCCN4CCCC4)cc3)s2)cc1` gave a remaining activity of 86.7%.
For `Cn1nc2c3c(cccc31)C(=O)c1ccccc1-2`, the remaining activity was 47.8%.

Excerpt of the above (series 3):
SNRK (Homo sapiens, UniProt Q9NRH2); enzyme activity — inhibition: 2%.
FLT3 (Homo sapiens, UniProt P36888, D835V) — inhibition: 91%.
For PKMYT1 (Homo sapiens, UniProt Q99640); enzyme activity: inhibition read 0%.
For PDGFRA (Homo sapiens, UniProt P16234); enzyme activity: inhibition read 67%.
CAMK1 (Homo sapiens, UniProt Q14012); enzyme activity — inhibition: 15%.
CDC42BPA (Homo sapiens, UniProt Q5VT25); enzyme activity — inhibition: 0%.
